{"data": "Measurements of several laboratories", "cell line": "MCF7", "note": "Lines come from different studies, so protocols differ. Numbers after ± are the reported error."}
{"Compound": "N#Cc1c(-c2ccc(Cl)cc2)c2c(=O)[nH]c(-c3ccccc3)nc2n(C2CCCCC2)c1=O", "assay": "cell growth or viability, MTT", "IC50": "≥ 50 µM"}
{"Compound": "N#CC(C(=O)Nc1nnc(NC(=O)c2ccccc2)s1)=C1Nc2ccccc2O1", "assay": "cell growth or viability, MTT", "conditions": "48 h", "IC50": "< 10 µM"}
{"Compound": "CC(=O)c1nn(-c2cccc(C)c2)/c(=N/N=C(\\C)c2ccc(NC(=O)c3cccnc3)cc2)s1", "assay": "cytotoxicity, MTT", "conditions": "24 h", "IC50": "20.5 ± 1.4 µM"}
{"Compound": "COc1ccc(C=C(C#N)C(=O)Nc2nnc(NC(=O)c3ccccc3)s2)cc1", "conditions": "48 h", "IC50": "9.48 ± 0.8 µM"}
{"Compound": "N#Cc1c(-c2ccc(Cl)cc2)c2c(=O)[nH]c(CCl)nc2n(C2CCCCC2)c1=O", "assay": "cell growth or viability, MTT", "IC50": "1.29 µM"}
{"Compound": "NCCCCCNc1n[n+]([O-])c2ccccc2[n+]1[O-]", "assay": "cytotoxicity, MTT", "test system": "10% FBS medium", "conditions": "6 h + 18 h, hypoxia 3% O2", "IC50": "> 76 µM"}
{"Compound": "N#CC(C(=O)Nc1nnc(NC(=O)c2ccccc2)s1)=C1SCCN1c1ccccc1", "assay": "cell growth or viability, MTT", "conditions": "48 h", "IC50": "36.2 µM"}
{"Compound": "Cc1ccc(-n2c(SCC(=O)NNC(=O)Nc3ccc(F)cc3)nc3ccccc3c2=O)cc1", "assay": "cell growth or viability, MTT", "IC50": "52.5 µM"}
{"Compound": "CN(C)C/C=C/C(=O)Nc1cc2c(Nc3ccc(F)c(Cl)c3)ncnc2cc1O[C@H]1CCOC1", "assay": "cell growth or viability, MTT", "conditions": "48 h", "IC50": "5.1 µM"}
{"Compound": "NCCCCCCNc1n[n+]([O-])c2ccccc2[n+]1[O-]", "assay": "cytotoxicity, MTT", "conditions": "24 h, normoxia", "IC50": "150 ± 26 µM"}
{"Compound": "NCCCn1c2c(c3ccc(N)cc3c1=O)C(=O)c1ccccc1-2", "assay": "cell growth or viability, SRB", "conditions": "24 h", "IC50": "1.09 µM"}
{"Compound": "C=CCc1ccc(OCc2nnc(SCC(=O)N3CCOCC3)o2)c(OC)c1", "assay": "cell growth or viability, MTT", "conditions": "72 h", "IC50": "38.9 µM"}
{"Compound": "CC(C)=CCC/C(C)=C/CC/C(C)=C/CC/C=C(\\C)CC/C=C(\\C)CCC=C(C)C", "assay": "cell growth or viability, resazurin", "conditions": "96 h", "IC50": "27.7 µg/mL"}
{"Compound": "COc1ccc2[nH]cc(CCNC(C)=O)c2c1", "assay": "cell survival, MTT", "conditions": "day 9, dosed days 2, 4, 7", "IC50": "27.9 µM"}
{"Compound": "C=CCc1ccc(O)c(-c2ccc(O)c(CC=C)c2)c1", "assay": "cell proliferation, MTS", "conditions": "24 h, together with: 10 µM BLM", "IC50": "2.51 µM"}
{"Compound": "CCCCNC(=O)c1ccc(NC(=O)Cn2c(=O)c(C)nc3ccccc32)cc1", "assay": "cell growth or viability, MTT", "IC50": "29.3 µM"}
{"Compound": "CC(C)c1cnn2c(NCc3ccccc3)cc(NCCCCCCN)nc12", "assay": "RNA Pol II CTD Ser5 phosphorylation, immunoblot densitometry", "conditions": "4 h", "IC50": "9 µM"}
{"Compound": "COc1ccc(/C=C/C(=O)CC(C)=O)cc1OC", "assay": "cell growth or viability, MTT", "conditions": "72 h", "IC50": "< 10.6 µM"}
{"Compound": "N#Cc1c(-c2ccc(Cl)cc2)c2c(=O)[nH]c(-c3ccc(Cl)cc3Cl)nc2n(C2CCCCC2)c1=O", "assay": "cell growth or viability, MTT", "IC50": "0.57 µM"}
{"Compound": "CC1=NNC(=O)C1=C1Sc2nc3ccc(S(=O)(=O)N4CCCC4)cc3nc2S1", "assay": "cell growth", "conditions": "24 h", "IC50": "70.1 ± 3.7 µM"}
{"Compound": "O=S(=O)(Sc1cccc(Br)c1)c1cccc(Br)c1", "assay": "cell growth, sulforhodamine B", "IC50": "> 10 µM"}
{"Compound": "COCc1c(C(C)C)nc(C(C)C)c(/C=C/[C@@H](O)C[C@@H](O)CC(=O)O)c1-c1ccc(F)cc1", "assay": "cell growth, SRB", "conditions": "72 h", "IC50": "44.5 µM"}
{"Compound": "C#Cc1cccc(Nc2ncnc3cc(OCCOC)c(OCCOC)cc23)c1", "assay": "cell growth or viability, MTT", "conditions": "48 h", "IC50": "2.51 µM"}
{"Compound": "NCCCNc1n[n+]([O-])c2ccccc2[n+]1[O-]", "assay": "cytotoxicity, MTT", "test system": "10% FBS medium", "conditions": "6 h + 18 h, hypoxia 3% O2", "IC50": "65.8 ± 2.4 µM"}
{"Compound": "CN1CCC2(CC1)C/C(=N\\N=C\\c1ccc(O)cc1)c1ccccc1O2", "assay": "cell growth or viability, MTT", "conditions": "48 h", "IC50": "10.1 µM"}
{"Compound": "N#CC(=Cc1ccc([N+](=O)[O-])cc1)C(=O)Nc1nnc(NC(=O)c2ccccc2)s1", "assay": "cell growth or viability, MTT", "conditions": "48 h", "IC50": "45.1 µM"}
{"Compound": "COc1ccc(-n2c(SCC(=O)NNC(=O)Nc3ccc(C)cc3)nc3ccccc3c2=O)cc1", "assay": "cell growth or viability, MTT", "IC50": "48.7 µM"}
{"Compound": "NCCNc1n[n+]([O-])c2ccccc2[n+]1[O-]", "assay": "cytotoxicity, MTT", "conditions": "24 h, normoxia", "IC50": "68 ± 2.2 µM"}
{"Compound": "O=S(=O)(Sc1ccccc1Cl)c1ccccc1Cl", "assay": "cell growth, sulforhodamine B", "IC50": "> 10 µM"}
{"Compound": "[O-][n+]1nc(NCCCCCCCNc2n[n+]([O-])c3ccccc3[n+]2[O-])nc2ccccc21", "assay": "cytotoxicity, MTT", "test system": "10% FBS medium", "conditions": "6 h + 18 h, hypoxia 3% O2", "IC50": "> 30 µM"}
{"Compound": "CCC(=O)O[C@H]1[C@H](C)O[C@@H](O[C@H]2[C@H](N(C)C)[C@@H](O)[C@H](O[C@H]3[C@@H](CC=O)C[C@@H](C)[C@@H](O)/C=C/C=C/C[C@@H](C)OC(=O)C[C@@H](O)[C@@H]3OC)O[C@@H]2C)C[C@@]1(C)O", "assay": "cell growth or viability, crystal violet", "conditions": "72 h", "IC50": "> 50 µM"}
{"Compound": "O=C(c1ccc2ccccc2c1)c1cn(-c2ccccc2)nc1C1=Nn2c(SCCCSc3nnc4n3N=C(c3nn(-c5ccccc5)cc3C(=O)c3ccc5ccccc5c3)CS4)nnc2SC1", "assay": "cell growth or viability, MTT", "conditions": "48 h", "IC50": "42.1 µM"}
{"Compound": "Cc1cc(C)c(C#N)c(OCC(=O)N2CCOCC2)n1", "assay": "cell viability, MTT", "conditions": "48 h", "IC50": "1.62 µM"}
{"Compound": "O=C(CSc1nc2ccccc2c(=O)n1-c1ccc(Cl)cc1)NNC(=O)Nc1ccc(F)cc1", "assay": "cell growth or viability, MTT", "IC50": "32.6 µM"}
{"Compound": "Cc1nc2ccccc2n(CC(=O)Nc2ccc(C(=O)NNC(=O)c3ccccc3O)cc2)c1=O", "assay": "cell growth or viability, MTT", "IC50": "22.3 µM"}
{"Compound": "COc1ccc(NC(=O)NNC(=O)CSc2nc3ccccc3c(=O)n2-c2ccc(C)cc2)cc1", "assay": "cell growth or viability, MTT", "IC50": "76.1 µM"}
{"Compound": "[O-][n+]1nc(NCCNc2n[n+]([O-])c3ccccc3[n+]2[O-])nc2ccccc21", "assay": "cytotoxicity, MTT", "test system": "10% FBS medium", "conditions": "6 h + 18 h, hypoxia 3% O2", "IC50": "11.7 ± 0.9 µM"}
{"Compound": "CS(=O)(=O)CCNCc1ccc(-c2ccc3ncnc(Nc4ccc(OCc5cccc(F)c5)c(Cl)c4)c3c2)o1", "assay": "cell growth or viability, MTT", "conditions": "72 h", "IC50": "22 µM"}
{"Compound": "Fc1cccc(SSc2cccc(F)c2)c1", "assay": "cell growth or viability, SRB", "IC50": "> 10 µM"}
{"Compound": "Cc1cccc(C)c1NC(=O)NNC(=O)CSc1nc2ccccc2c(=O)n1-c1ccc(Cl)cc1", "assay": "cell growth or viability, MTT", "IC50": "21.4 µM"}
{"Compound": "Cc1cc(C)n(-c2nnc(NC(=O)c3ccccc3)s2)c(=O)c1C#N", "assay": "cell growth or viability, MTT", "conditions": "48 h", "IC50": "14.1 µM"}
{"Compound": "O=C(/C=C/c1ccc(O)cc1)CC(=O)/C=C/c1ccc(O)cc1", "assay": "cell growth or viability, MTT", "conditions": "48 h", "IC50": "28.2 µg/mL"}
{"Compound": "O=c1[nH]cc(F)c(=O)[nH]1", "assay": "cell growth or viability, MTT", "conditions": "72 h", "IC50": "46 µM"}
{"Compound": "O=S(=O)(Sc1ccc(F)cc1)c1ccc(F)cc1", "assay": "cell growth, sulforhodamine B", "IC50": "7.5 µM"}
{"Compound": "O=C1CCCCC1=C1Sc2nc3ccc(S(=O)(=O)N4CCCC4)cc3nc2S1", "assay": "cell growth", "conditions": "24 h", "IC50": "≤ 8.78 µM"}
{"Compound": "COc1cc(-c2cc(-c3ccc(Cl)cc3)n(CC(=O)n3nc(C)cc3C)c(=O)c2C#N)ccc1O", "assay": "cell growth or viability, MTT", "IC50": "≥ 50 µM"}
{"Compound": "COc1ccc(-c2cc(-c3ccc(N(C)C)cc3)c3c(=O)n(C)c(=O)n(C)c3n2)cc1", "assay": "cell growth or viability, MTT", "conditions": "48 h", "IC50": "< 5 µM"}
{"Compound": "COc1ccc(NC(=O)NNC(=O)CSc2nc3ccccc3c(=O)n2-c2ccc(Cl)cc2)cc1", "assay": "cell growth or viability, MTT", "IC50": "43.8 µM"}
{"Compound": "Fc1ccc(SSc2ccc(F)cc2)cc1", "assay": "cell growth or viability, SRB", "IC50": "> 10 µM"}
{"Compound": "[O-][n+]1nc(NCCCCCCNc2n[n+]([O-])c3ccccc3[n+]2[O-])nc2ccccc21", "assay": "cytotoxicity, MTT", "test system": "10% FBS medium", "conditions": "6 h + 18 h, hypoxia 3% O2", "IC50": "> 30 µM"}
{"note": "Some of these lines once more:"}
{"Compound": "CC(C)=CCC/C(C)=C/CC/C(C)=C/CC/C=C(\\C)CC/C=C(\\C)CCC=C(C)C", "assay": "cell growth or viability, resazurin", "conditions": "96 h", "IC50": "27.7 µg/mL"}
{"Compound": "C=CCc1ccc(OCc2nnc(SCC(=O)N3CCOCC3)o2)c(OC)c1", "assay": "cell growth or viability, MTT", "conditions": "72 h", "IC50": "38.9 µM"}
{"Compound": "C=CCc1ccc(O)c(-c2ccc(O)c(CC=C)c2)c1", "assay": "cell proliferation, MTS", "conditions": "24 h, together with: 10 µM BLM", "IC50": "2.51 µM"}
{"Compound": "O=S(=O)(Sc1cccc(Br)c1)c1cccc(Br)c1", "assay": "cell growth, sulforhodamine B", "IC50": "> 10 µM"}
{"Compound": "CN(C)C/C=C/C(=O)Nc1cc2c(Nc3ccc(F)c(Cl)c3)ncnc2cc1O[C@H]1CCOC1", "assay": "cell growth or viability, MTT", "conditions": "48 h", "IC50": "5.1 µM"}
{"Compound": "COc1ccc2[nH]cc(CCNC(C)=O)c2c1", "assay": "cell survival, MTT", "conditions": "day 9, dosed days 2, 4, 7", "IC50": "27.9 µM"}
